Published values of several laboratories.
Numbered parts are unrelated; each lists some results of a single study. Positions count from the first letter of the parent shown.

Set 1
Target: CEBPB, bZIP domain (human)
Technique: DHFR protein complementation
Matrix: yeast
Notes: single substitutions, most at no-binding floor
Baseline: wild-type JUN-FOS pair
Direction: higher = stronger binding
Starting sequence: JUN, bZIP domain (human); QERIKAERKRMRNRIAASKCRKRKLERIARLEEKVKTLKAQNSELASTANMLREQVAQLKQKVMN; partner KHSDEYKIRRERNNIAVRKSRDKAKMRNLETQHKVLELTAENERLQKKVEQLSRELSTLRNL
| Substitution | binding fitness |
| --- | --- |
| L45A | -1.58 natural log |
| T48P | -1.51 natural log |
| Q55W | -1.41 natural log |
| E32D | -1.21 natural log |
| E32W | -1.48 natural log |
| Q41V | -1.39 natural log |
| E32T | -1.38 natural log |
| A40G | -1.42 natural log |
| S43G | -1.36 natural log |
| V35I | -1.36 natural log |
| K34S | -1.42 natural log |
| Q41H | -1.23 natural log |
| A57L | -1.25 natural log |
| N42F | -1.61 natural log |
| A40Q | -1.41 natural log |
| M51H | -1.36 natural log |
| V35Q | -1.59 natural log |

Set 2
Target: Interferon regulatory factor 5, full length, phosphomimetic (IRF5, Homo sapiens, UniProt Q13568-2, residues 1-514, K96S/S451D/S453D/S456D/S462D)
Technique: protein-binding microarray
Molecule type: double-stranded DNA, one strand shown
Matrix: in vitro
Tested at: 250 nM
Notes: 60-bp whole probe
Added: salmon DNA 0.4 mg/ml
Baseline: random background probes
Direction: higher = stronger binding
Constant ends, left off below: GCCTAGCAC … GTCTTGATTCGCTTGACGCTGCTG
| Strand | log fluorescence [z-score] |
| --- | --- |
| TCATTACTAAAATTTCATACTGTGCTA | 1.18 |
| AGTTCTCTGAAGACTCTCTTGGTGCTA | -0.000561 |
| GATGATATCAGTTTCGAGACGTGCTAG | 6.89 |
| GACGGGCTCCTTCTCCTGACGTGCTAG | -0.554 |
| GACGGTTTCGGGTGTCGGGACGTGCTA | 6.93 |
| TCACCTTTGCCTCATCTTACTGTGCTA | 0.388 |
| TTAGAACTTAGTATCGATTAGTGCTAG | 8.11 |
| TTAGATTTTTTTTCCTAATTGTGCTAG | 1.06 |
| TCCTGGAGTCTATGCTGCTGGTGCTAG | -0.752 |
| ATAGGACTGCTTTTCCTTTAGTGCTAG | 0.313 |
| TCAACTTTCTGAATGCCACTGTGCTAG | 2.2 |

Set 3
Target: Histone acetyltransferase KAT6A, winged helix 1, GST fusion (KAT6A, Homo sapiens, UniProt Q92794, residues 1-85)
Technique: protein binding microarray
Molecule type: double-stranded DNA, one strand shown
Matrix: in vitro
Tested at: not given
Notes: 8-mer, flanks averaged, mean of 2 arrays, mostly near background
Baseline: not given
Direction: higher = stronger binding
Residues (chain): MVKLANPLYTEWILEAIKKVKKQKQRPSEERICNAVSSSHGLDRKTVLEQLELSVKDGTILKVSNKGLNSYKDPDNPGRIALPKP
| Strand | E-score |
| --- | --- |
| TAATAAGA | -0.0553 |
| GGAGTTAC | 0.0438 |
| ACACTGTA | -0.157 |
| CACCCCGA | -0.0408 |
| CTTCCGAA | 0.0101 |
| GAAATCGA | 0.0722 |
| CATTCCTA | -0.213 |
| GCTGCAGC | 0.0999 |
| GACCCCCC | 0.0388 |
| CCAACGTA | -0.185 |
| AAGTCCAT | -0.157 |
| AGCGTTTC | 0.0411 |
| GGTGCCTA | -0.128 |
| CCCTTGGC | 0.00351 |
| ACAAAATG | -0.133 |
| AAATCGGG | -0.00522 |
| AGGCGCCA | 0.164 |
| CCGCGCAC | 0.398 |
| CATGGCTA | -0.15 |
| ACGGTGTC | 0.228 |
| CTTAGAAC | -0.175 |
| GCATGACC | -0.0504 |
| AGAACGCG | 0.332 |
| AAGACGCC | 0.175 |
| GTGCAACA | -0.103 |

Set 4
Target: CCNB3, cyclin fold, Cln2 fusion (human)
Technique: yeast growth competition, sequencing
Matrix: yeast
Notes: strong parent motif
Baseline: not given
Direction: higher = stronger binding
Starting sequence: BRCA2 docking peptide (human); PSIKRNLLNEFDR
| Substitution | normalised enrichment score |
| --- | --- |
| PSIKRNLRNEFDR [L8R] | -0.486 |
| PSHKRNLLNEFDR [I3H] | 0.348 |
| PSIERNLLNEFDR [K4E] | 0.226 |
| PSIKRNLLNEFGR [D12G] | 0.661 |
| PSILRNLLNEFDR [K4L] | 0.267 |
| PSIKRNLKNEFDR [L8K] | 0.682 |
| PSFKRNLLNEFDR [I3F] | 0.301 |
| PSIKRNLLNEFDN [R13N] | 1.02 |
| PSIKRNLINEFDR [L8I] | 1.36 |
| PTIKRNLLNEFDR [S2T] | 1.06 |
| PSVKRNLLNEFDR [I3V] | 1.18 |
| PSIKRNLLNHFDR [E10H] | 0.23 |
| PSIKRNLLNEFDI [R13I] | 1.27 |
| PQIKRNLLNEFDR [S2Q] | 0.978 |
| PSIKRNLLNRFDR [E10R] | 0.0629 |
| PSIIRNLLNEFDR [K4I] | 0.419 |
| PSIKRNLLNEFCR [D12C] | 0.798 |
| PSIKRNLSNEFDR [L8S] | 0.724 |
| PSIKRNILNEFDR [L7I] | 1.07 |
| PSIKANLLNEFDR [R5A] | 0.218 |
| PSIKRNLLNEFHR [D12H] | 0.371 |
| PSIKRNLMNEFDR [L8M] | 2.04 |
| PSIKRNYLNEFDR [L7Y] | 0.0244 |
| PCIKRNLLNEFDR [S2C] | 0.952 |
| PSIKRNLLNKFDR [E10K] | -0.284 |

Set 5
Target: Centromere-binding protein 1, full length, His-tagged (CBF1, Saccharomyces cerevisiae, UniProt P17106, residues 1-351)
UniProt P17106, sequence (whole entry, looked up): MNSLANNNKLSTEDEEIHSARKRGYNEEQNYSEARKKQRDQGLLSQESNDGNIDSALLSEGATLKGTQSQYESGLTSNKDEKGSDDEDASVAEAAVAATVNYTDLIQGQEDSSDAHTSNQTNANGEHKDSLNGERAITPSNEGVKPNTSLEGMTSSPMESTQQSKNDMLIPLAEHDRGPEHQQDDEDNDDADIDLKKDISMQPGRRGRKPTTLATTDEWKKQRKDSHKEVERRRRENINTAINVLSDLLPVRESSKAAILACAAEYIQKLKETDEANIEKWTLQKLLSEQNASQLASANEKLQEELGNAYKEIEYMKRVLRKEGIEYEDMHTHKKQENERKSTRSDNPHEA
Technique: competition protein-binding microarray
Molecule type: double-stranded DNA, one strand shown
Matrix: in vitro
Tested at: 2 µM
Notes: whole 60-bp probe, lowest competitor level
Added: Pho4 competitor, 0.05 µM
Direction: higher = stronger binding
| Strand | fluorescence intensity [a.u.] |
| --- | --- |
| AAGGGATGGTGGCGTCACATGGGTGGTCCAAAGCAAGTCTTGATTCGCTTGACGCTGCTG | 386 |
| TGAGTTAAGTGTAGGCATGTGACTCACTTCTGGTAAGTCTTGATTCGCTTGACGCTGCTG | 1320 |
| AAAGTTCTTTTTCAACACGTGCTTTTAATCAGCATTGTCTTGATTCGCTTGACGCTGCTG | 3820 |
| AGTTTCAATATCTGTCCCGTGGAAGTTATATTCGCTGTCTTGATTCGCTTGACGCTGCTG | 206 |
| TACAATAAATAAGTTCTATCATAATACAAGGGAATTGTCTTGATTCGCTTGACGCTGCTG | 78.2 |
| TGCTACTGCTGCTGTTGTGTGACAGGAAACGCGTTTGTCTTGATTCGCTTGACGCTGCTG | 63.5 |
| CTTTCCCGATCTTTTCACGTGCAATTAGCACATTTGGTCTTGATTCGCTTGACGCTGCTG | 1290 |
| AGCAGTTTGAATTGTCATGTGCAAACAACCAGCAATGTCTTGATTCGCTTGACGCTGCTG | 313 |
| ACCGCGGACGACGGCCACGCAGGCAAAGAATGCTTTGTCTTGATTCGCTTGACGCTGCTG | 53.1 |
| GTAATTTCAATAGCTCGCGTGGCCGAATGGCAACGCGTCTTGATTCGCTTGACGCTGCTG | 85.7 |
| TTGCATAGTCAGTGTGGCGTGCAAACTCCACAGAATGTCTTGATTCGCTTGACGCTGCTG | 80.1 |
| AAATTACTAAGTTGTACCGTGGGTGACGCCGTATGAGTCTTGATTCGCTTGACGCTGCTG | 70.3 |
| ATCCAGAACCCGTATCGCGTGCAAACAAAGAGATTTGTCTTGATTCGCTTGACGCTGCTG | 113 |
| CCTTGTTCGAGTTTGGACGTGCGGAGAATCTACCCAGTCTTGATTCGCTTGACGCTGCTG | 74.2 |
| AAATTACTAAGTTTTCACGTGATTTACCCCGTATGAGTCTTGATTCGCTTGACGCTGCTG | 3670 |
| CTTCTGTAAATTTGCTACGTGGGTGGACGCGCCCCGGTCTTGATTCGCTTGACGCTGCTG | 93.1 |
| CTTTCCCGATCTTGTCACCGGACTTTAGCACATTTGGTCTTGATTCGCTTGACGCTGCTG | 88.5 |
| CTTCTGTAAATTTGTGTAGTGGGTGGACGCGCCCCGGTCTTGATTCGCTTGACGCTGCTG | 105 |
| CATACCCAACCTTGGAGGGTGGGTGAAGATATTTGTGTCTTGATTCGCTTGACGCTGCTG | 63.9 |
| CAATAAATCTTGTTCCTCGTGGCCGAATGGTTACGGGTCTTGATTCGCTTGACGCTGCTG | 95.6 |
| GGAGGGCAGTAGTTCCATGTGCTTCTCAGAAGAGCTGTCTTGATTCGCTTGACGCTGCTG | 84 |
| CTATAGGATAACCATCACGGCTAAAACGGTCGAATGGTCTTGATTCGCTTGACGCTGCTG | 74.9 |

Set 6
Target: ABI1, truncated, D143A, DHFR fusion (Arabidopsis thaliana)
Technique: DHFR PCA, deep sequencing
Matrix: yeast
Notes: methotrexate growth selection, single substitutions
Added: (+)-ABA 0.032 µM
Baseline: wild-type fitted maximum
Direction: higher = stronger binding
Starting sequence: PYL1, truncated, DHFR fusion (Arabidopsis thaliana); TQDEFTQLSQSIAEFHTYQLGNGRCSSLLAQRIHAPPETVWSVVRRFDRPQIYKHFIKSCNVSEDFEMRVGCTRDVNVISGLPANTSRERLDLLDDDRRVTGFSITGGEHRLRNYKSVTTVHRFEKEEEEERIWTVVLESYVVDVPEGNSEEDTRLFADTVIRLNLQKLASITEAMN
| Substitution | relative binding score [%] |
| --- | --- |
| Q31N | -8.7 |
| K126S | 70.9 |
| R88H | 50.8 |
| R113C | 9.21 |
| V44L | 6.64 |
| S11Q | 25.3 |
| K54I | -9.01 |
| H122P | 1.07 |
| P36T | 11.5 |
| E4P | 7.09 |
| T119F | -4.36 |
| E38V | 2.18 |
| Q7I | 12 |
| V76P | 0.408 |
| V78I | 44.7 |
| E151T | 26.6 |
| D96W | 2.98 |

Single results of other studies
| Substance | target | assay | system | conditions | how to read | measurement | value |
| --- | --- | --- | --- | --- | --- | --- | --- |
| PhoQ, residues 284 288 289 292 302 303 SASVAL | PhoP, residues 12 14 15 18 19 NQAHL (Escherichia coli, UniProt P23836) | Sort-seq, measured: YFP reporter | E. coli | PhoQ-PhoP variant library, added: 10 µM Mg2+ | baseline: high Mg2+ state, higher = stronger signaling | fold induction | 0.552 |

For quick reference, copied from above (set 5):
| Strand | fluorescence intensity [a.u.] |
| --- | --- |
| GTAATTTCAATAGCTCGCGTGGCCGAATGGCAACGCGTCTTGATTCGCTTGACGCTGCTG | 85.7 |
| TTGCATAGTCAGTGTGGCGTGCAAACTCCACAGAATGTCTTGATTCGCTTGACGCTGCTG | 80.1 |
| AAATTACTAAGTTGTACCGTGGGTGACGCCGTATGAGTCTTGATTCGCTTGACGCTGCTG | 70.3 |
| ATCCAGAACCCGTATCGCGTGCAAACAAAGAGATTTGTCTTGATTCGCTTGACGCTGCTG | 113 |
| CCTTGTTCGAGTTTGGACGTGCGGAGAATCTACCCAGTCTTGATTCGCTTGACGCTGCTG | 74.2 |
| AAATTACTAAGTTTTCACGTGATTTACCCCGTATGAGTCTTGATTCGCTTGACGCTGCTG | 3670 |
| CTTCTGTAAATTTGCTACGTGGGTGGACGCGCCCCGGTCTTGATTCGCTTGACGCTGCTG | 93.1 |
| CTTTCCCGATCTTGTCACCGGACTTTAGCACATTTGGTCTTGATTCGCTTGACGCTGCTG | 88.5 |
| CTTCTGTAAATTTGTGTAGTGGGTGGACGCGCCCCGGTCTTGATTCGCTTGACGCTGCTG | 105 |
| CATACCCAACCTTGGAGGGTGGGTGAAGATATTTGTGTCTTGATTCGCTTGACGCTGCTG | 63.9 |
| CAATAAATCTTGTTCCTCGTGGCCGAATGGTTACGGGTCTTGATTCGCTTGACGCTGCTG | 95.6 |
| GGAGGGCAGTAGTTCCATGTGCTTCTCAGAAGAGCTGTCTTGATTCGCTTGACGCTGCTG | 84 |
| CTATAGGATAACCATCACGGCTAAAACGGTCGAATGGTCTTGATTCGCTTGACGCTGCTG | 74.9 |
